# Measurements from different studies.
# Each line is one published result; not all experiments were run side by side.
SMILES,test,system,conditions,measurement,result
Cc1c(Cl)c(C)[n+]([O-])c(Cl)c1-c1noc(-c2cc(O)c(O)c([N+](=O)[O-])c2)n1,item: Bloating,healthy Chinese subjects,"oral, 50 mg, 20 days",adverse drug reaction incidence,0%
NCCONC(=O)[C@@H]1CC[C@@H]2CN1C(=O)N2OS(=O)(=O)O,item: Severe severity,healthy Chinese men,"intravenous, 2 g, treatment-related",adverse event incidence,0%
Cc1cc(Nc2ccc(S(F)(F)(F)(F)F)cc2)n2nc(C(C)(F)F)nc2n1,,Plasmodium falciparum malaria patients,"oral, 250 mg",adverse event Nausea,27.3%
Cc1ccc(Sc2ccccc2N2CCNCC2)c(C)c1,,healthy adult men,"oral, 40 mg single dose, 10 days",adverse event incidence,0%
CC(C)n1c(Nc2cccnc2)nc2cnc(Nc3ccc(N4CCN(C)CC4)cc3)nc21,item: Hyperuricemia,healthy male subjects,"oral, 150 mg, with: rifampin",adverse event incidence,0%
CC(=O)O[C@H]1C(=O)[C@@]2(C)[C@H]([C@H](OC(=O)c3ccccc3)[C@]3(O)C[C@H](OC(=O)[C@H](O)[C@@H](NC(=O)c4ccccc4)c4ccccc4)C(C)=C1C3(C)C)[C@]1(OC(C)=O)CO[C@@H]1C[C@@H]2O,item: decreased appetite,patients with advanced solid tumours,"intravenous, dose not given, grade 1 and 2, possibly related to drug",adverse event incidence,31%
CC[C@H](C)CCCCC(=O)N[C@@H](CCN)C(=O)N[C@H](C(=O)N[C@@H](CCN)C(=O)N[C@H]1CCNC(=O)[C@H]([C@@H](C)O)NC(=O)[C@H](CCN)NC(=O)[C@H](CCN)NC(=O)[C@H](CC(C)C)NC(=O)[C@@H](Cc2ccccc2)NC(=O)[C@H](CCN)NC1=O)[C@@H](C)O,item: oral hypoaesthesia,all subjects,"IV, 0.75 mg/kg",adverse event incidence,72.7%
CNC(=O)c1ccc(-c2cnc3ncc(Cc4ccc5ncccc5c4)n3n2)cc1F,"phase 1 clinical trial, item: blood creatinine increased",gastric cancer expansion cohort,"oral, 600 mg twice daily, grade 3 or 4",adverse event incidence,0%
O=C1CCc2ccc(OCCCCN3CCN(c4cccc(Cl)c4Cl)CC3)cc2N1,item: Hypertension,"genotyped patients, CYP2D6 poor metabolizers","dose not given, long-acting oral or depot",adverse event incidence,0%

# Some of these lines once more:
SMILES,test,system,conditions,measurement,result
CC(C)n1c(Nc2cccnc2)nc2cnc(Nc3ccc(N4CCN(C)CC4)cc3)nc21,item: Hyperuricemia,healthy male subjects,"oral, 150 mg, with: rifampin",adverse event incidence,0%
